Published values collected from several papers.
A part holds a random share of what one study measured.
Chain of UniProt Q9UF33 (whole entry, looked up): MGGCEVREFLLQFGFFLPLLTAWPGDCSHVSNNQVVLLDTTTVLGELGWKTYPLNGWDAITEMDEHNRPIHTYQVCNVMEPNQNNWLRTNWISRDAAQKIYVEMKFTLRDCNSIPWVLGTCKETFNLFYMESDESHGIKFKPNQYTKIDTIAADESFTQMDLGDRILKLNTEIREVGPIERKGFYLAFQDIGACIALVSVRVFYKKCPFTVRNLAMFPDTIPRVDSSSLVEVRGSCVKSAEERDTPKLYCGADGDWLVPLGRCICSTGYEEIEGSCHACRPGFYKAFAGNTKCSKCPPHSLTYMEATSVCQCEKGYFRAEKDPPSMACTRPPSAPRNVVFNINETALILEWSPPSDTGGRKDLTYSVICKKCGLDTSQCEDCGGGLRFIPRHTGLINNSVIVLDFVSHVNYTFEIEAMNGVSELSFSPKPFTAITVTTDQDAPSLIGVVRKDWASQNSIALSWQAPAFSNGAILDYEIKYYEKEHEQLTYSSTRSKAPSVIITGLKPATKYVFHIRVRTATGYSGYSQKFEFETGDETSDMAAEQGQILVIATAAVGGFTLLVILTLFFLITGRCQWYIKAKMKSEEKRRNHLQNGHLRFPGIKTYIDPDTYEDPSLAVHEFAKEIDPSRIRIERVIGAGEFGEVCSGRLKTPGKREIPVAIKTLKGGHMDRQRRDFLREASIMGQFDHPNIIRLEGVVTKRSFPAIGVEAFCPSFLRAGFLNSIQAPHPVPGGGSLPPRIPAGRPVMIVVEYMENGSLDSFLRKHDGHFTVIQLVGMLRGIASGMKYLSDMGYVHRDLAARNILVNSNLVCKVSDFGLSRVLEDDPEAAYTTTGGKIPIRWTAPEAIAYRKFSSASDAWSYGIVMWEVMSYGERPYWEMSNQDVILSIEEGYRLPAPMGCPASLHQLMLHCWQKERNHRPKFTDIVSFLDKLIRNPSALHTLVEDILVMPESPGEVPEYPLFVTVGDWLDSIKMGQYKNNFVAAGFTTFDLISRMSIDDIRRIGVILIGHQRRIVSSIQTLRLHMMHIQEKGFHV
Chain of UniProt Q9NWZ3 (whole entry, looked up): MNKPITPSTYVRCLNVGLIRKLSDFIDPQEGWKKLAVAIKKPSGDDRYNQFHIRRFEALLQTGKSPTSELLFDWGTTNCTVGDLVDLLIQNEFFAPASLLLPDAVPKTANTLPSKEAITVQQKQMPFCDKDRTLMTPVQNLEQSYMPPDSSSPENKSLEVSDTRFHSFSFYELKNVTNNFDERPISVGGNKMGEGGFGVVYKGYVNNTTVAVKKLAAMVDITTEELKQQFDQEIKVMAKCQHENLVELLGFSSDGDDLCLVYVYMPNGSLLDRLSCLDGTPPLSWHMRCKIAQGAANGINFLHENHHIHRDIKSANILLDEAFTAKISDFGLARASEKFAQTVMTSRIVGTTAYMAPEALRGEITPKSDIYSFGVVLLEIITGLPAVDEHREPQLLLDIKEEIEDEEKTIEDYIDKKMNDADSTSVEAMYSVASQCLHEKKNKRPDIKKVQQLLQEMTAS
Chain of UniProt Q06187 (whole entry, looked up): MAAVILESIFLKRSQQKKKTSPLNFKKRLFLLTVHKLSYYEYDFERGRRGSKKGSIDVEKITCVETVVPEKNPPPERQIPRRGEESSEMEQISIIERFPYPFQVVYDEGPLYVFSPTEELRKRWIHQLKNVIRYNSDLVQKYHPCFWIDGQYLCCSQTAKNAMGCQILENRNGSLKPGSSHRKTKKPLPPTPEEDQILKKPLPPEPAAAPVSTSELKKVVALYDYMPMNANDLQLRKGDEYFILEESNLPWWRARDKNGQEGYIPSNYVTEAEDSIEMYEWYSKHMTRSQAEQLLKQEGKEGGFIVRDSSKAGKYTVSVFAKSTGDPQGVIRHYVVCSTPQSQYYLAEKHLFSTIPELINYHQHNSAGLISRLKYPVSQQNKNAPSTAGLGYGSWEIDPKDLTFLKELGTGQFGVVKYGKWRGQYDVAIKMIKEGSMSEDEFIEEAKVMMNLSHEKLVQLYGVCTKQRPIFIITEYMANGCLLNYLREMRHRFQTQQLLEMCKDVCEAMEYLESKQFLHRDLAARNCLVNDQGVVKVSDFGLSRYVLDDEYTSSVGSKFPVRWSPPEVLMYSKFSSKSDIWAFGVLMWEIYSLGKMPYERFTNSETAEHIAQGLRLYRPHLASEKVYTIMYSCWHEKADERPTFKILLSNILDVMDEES
Chain of UniProt P46734 (whole entry, looked up): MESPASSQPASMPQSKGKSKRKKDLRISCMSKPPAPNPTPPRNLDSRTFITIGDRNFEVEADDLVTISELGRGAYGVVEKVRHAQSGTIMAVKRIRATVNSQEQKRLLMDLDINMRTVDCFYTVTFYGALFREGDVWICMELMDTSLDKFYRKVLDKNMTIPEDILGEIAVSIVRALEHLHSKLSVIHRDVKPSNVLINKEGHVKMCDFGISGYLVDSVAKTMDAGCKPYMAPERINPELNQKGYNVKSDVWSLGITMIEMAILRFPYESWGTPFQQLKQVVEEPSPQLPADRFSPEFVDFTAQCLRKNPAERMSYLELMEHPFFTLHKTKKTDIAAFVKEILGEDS
Chain of UniProt Q16816 (whole entry, looked up): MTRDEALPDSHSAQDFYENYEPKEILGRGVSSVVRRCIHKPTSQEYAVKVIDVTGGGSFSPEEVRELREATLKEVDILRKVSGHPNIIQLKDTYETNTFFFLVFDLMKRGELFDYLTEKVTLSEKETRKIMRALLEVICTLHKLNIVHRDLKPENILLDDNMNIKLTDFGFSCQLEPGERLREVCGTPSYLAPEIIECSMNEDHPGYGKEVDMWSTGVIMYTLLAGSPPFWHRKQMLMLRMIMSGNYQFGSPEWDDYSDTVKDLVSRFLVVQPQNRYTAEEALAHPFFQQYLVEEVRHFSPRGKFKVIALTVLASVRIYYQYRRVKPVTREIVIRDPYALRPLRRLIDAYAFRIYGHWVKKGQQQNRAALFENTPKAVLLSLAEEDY
Chain of UniProt P51957 (whole entry, looked up): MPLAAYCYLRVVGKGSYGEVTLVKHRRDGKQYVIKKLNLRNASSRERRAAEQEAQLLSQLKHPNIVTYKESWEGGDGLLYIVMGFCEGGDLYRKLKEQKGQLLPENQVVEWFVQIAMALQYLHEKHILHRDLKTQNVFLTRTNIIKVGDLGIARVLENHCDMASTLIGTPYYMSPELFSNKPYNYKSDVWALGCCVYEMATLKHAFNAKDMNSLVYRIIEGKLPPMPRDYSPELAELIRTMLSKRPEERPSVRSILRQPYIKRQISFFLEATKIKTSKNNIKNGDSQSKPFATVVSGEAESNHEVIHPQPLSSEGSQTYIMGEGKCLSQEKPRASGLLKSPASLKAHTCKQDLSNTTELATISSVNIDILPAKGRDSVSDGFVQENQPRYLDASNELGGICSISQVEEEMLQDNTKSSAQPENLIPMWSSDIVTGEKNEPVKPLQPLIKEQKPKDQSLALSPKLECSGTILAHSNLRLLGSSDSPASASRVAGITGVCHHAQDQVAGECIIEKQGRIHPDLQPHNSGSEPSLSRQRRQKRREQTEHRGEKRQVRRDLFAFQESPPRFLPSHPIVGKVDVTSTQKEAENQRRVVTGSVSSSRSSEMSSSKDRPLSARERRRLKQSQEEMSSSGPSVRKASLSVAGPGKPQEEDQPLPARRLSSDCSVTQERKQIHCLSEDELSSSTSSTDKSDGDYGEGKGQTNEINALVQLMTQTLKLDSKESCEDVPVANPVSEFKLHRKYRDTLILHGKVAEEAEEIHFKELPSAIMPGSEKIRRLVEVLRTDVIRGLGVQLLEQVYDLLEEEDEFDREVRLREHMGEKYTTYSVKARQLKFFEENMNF
Chain of UniProt P35626 (whole entry, looked up): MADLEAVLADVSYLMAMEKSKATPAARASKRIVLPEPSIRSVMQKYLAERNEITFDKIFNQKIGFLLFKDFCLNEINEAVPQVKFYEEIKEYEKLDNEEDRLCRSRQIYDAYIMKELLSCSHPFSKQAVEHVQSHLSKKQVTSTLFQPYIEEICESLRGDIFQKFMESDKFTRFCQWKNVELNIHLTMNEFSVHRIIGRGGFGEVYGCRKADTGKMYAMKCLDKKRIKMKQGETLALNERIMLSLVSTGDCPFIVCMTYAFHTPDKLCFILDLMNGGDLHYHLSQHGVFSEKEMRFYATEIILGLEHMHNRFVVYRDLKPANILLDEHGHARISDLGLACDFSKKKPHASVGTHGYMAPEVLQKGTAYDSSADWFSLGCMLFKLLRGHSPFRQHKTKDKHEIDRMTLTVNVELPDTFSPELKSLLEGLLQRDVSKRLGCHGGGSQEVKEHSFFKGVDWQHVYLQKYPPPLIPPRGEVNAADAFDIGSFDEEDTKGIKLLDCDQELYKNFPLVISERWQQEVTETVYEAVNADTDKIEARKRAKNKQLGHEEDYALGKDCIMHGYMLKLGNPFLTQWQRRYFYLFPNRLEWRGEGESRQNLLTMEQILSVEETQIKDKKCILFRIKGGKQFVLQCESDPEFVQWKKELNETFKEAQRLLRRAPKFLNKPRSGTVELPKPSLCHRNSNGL
Chain of UniProt Q9HBH9 (whole entry, looked up): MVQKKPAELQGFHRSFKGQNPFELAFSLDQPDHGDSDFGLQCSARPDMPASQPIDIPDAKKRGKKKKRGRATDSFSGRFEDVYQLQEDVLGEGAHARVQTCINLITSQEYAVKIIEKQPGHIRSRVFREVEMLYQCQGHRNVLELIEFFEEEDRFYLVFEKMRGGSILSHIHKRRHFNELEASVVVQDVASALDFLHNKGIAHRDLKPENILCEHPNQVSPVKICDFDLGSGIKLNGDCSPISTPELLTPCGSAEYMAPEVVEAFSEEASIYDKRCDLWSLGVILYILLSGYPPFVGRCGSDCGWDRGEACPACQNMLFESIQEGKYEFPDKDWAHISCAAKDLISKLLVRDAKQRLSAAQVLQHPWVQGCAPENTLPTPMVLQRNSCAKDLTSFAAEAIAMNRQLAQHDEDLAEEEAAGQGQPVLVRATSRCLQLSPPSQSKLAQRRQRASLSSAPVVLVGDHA

Study 1 — method: RNAcompete; form: RNA; matrix: in vitro; tested at: 20 nM; notes: 7-mer, probes averaged, single round; relative to: mean of 7-mers; direction: higher = stronger binding
Target: PABPC1L2, full length, GST fusion (mouse, UniProt A0ABA7IW68)
Target sequence (chain): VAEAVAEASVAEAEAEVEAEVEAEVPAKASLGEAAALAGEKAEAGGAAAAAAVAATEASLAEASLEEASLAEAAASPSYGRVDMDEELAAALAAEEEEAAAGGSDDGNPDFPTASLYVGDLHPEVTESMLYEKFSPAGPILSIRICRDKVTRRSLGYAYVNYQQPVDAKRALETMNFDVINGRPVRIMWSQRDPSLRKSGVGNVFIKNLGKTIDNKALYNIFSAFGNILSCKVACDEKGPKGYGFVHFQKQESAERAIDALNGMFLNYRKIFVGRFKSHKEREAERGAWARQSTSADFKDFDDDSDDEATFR
Oligonucleotide | 7-mer Z-score
AGAACAU | -0.0264
GGAUUCU | -0.182
GGACGGC | 0.142
UUGUUCC | -0.476
UGUACUU | -0.264
UUAGUGU | -0.204
CUAGGUU | -0.364
ACAAGAC | 0.345

Study 2 — method: protein-binding microarray; form: double-stranded DNA, one strand shown; matrix: in vitro; tested at: 940 nM top; notes: 60-bp whole probe; with: salmon DNA 0.4 mg/ml; relative to: random background probes; direction: higher = stronger binding
Target: Interferon regulatory factor 5, full length, phosphomimetic (IRF5, Homo sapiens, UniProt Q13568-2, residues 1-514, S451D/S453D/S456D/S462D)
Shared flanks, not repeated: GCCTAGCAC … GTGCTAGGTCTTGATTCGCTTGACGCTGCTG
Oligonucleotide | fitted relative affinity [z-score]
GACGAACTGAGTCTCGAGTC | 1.87
TCAGCTTACAATATAAAACT | 0.266
TTATGTCTCCTACTGCTTTA | 0.809
GACGCTCTCAGTATCGAGAC | 3.03
GACGATCTCTGACTGGAGAC | -0.305
TTTTTTTTTTTTTTGGAATG | 0.817
TTAGGGATCCTTTTCCTTTA | -0.191
GACGGTTCCCTCTTCCTGAC | 0.766

Study 3 — method: competition with immobilised ligand; tested at: 1 µM
SMILES: CN(C)CC#Cc1ccc(OCCCc2sc(N3CCc4cccc(C(=O)Nc5nc6ccccc6s5)c4C3)nc2C(=O)O)c(F)c1
target | assay | remaining binding [%]
MAPK15 (Homo sapiens, UniProt Q8TD08) | cell-free assay | 100
Tyrosine-protein kinase ABL1, non-phosphorylated (ABL1, Homo sapiens, UniProt P00519, Q252H) | cell-free assay | 88
Tyrosine-protein kinase ABL1, phosphorylated (ABL1, Homo sapiens, UniProt P00519, E255K) | binding | 85
PIK3CA (Homo sapiens, UniProt P42336, C420R) | cell-free assay | 100
MAP2K3 (Homo sapiens, UniProt P46734) | cell-free assay | 100
GRK3 (Homo sapiens, UniProt P35626) | cell-free assay | 92
EPHA6 (Homo sapiens, UniProt Q9UF33) | cell-free assay | 100
NUAK2 (Homo sapiens, UniProt Q9H093) | cell-free assay | 82
MAST1 (Homo sapiens, UniProt Q9Y2H9) | cell-free assay | 89
ULK3 (Homo sapiens, UniProt Q6PHR2) | cell-free assay | 100
NTRK1 (Homo sapiens, UniProt P04629) | cell-free assay | 100
ERBB2 (Homo sapiens, UniProt P04626) | cell-free assay | 100
PHKG1 (Homo sapiens, UniProt Q16816) | cell-free assay | 98
PAK4 (Homo sapiens, UniProt O96013) | cell-free assay | 96

Study 4 — Structure (SMILES): CCCCc1c(-c2ccc(O)cc2)[nH]c2nccnc12; observed: enzyme activity; action: inhibitor; tested at: 0.5 µM; relative to: control
target | remaining activity [%]
NEK4 (Homo sapiens, UniProt P51957) | 82.2
MAP4K2 (Homo sapiens, UniProt Q12851) | 28.2
CSNK1A1 (Homo sapiens, UniProt P48729) | 92.9
CHEK1 (Homo sapiens, UniProt O14757) | 92.9
PLK2 (Homo sapiens, UniProt Q9NYY3) | 83.9
PRKCI (Homo sapiens, UniProt P41743) | 99.4
LRRK2 (Homo sapiens, UniProt Q5S007) | 80
BTK (Homo sapiens, UniProt Q06187) | 61.7
IRAK4 (Homo sapiens, UniProt Q9NWZ3) | 159
AKT3 (Homo sapiens, UniProt Q9Y243) | 95.8
MKNK2 (Homo sapiens, UniProt Q9HBH9) | 107
CSNK2A1 (Homo sapiens, UniProt P68400) | 95.9

Excerpt of the above (study 4):
target | remaining activity [%]
LRRK2 (Homo sapiens, UniProt Q5S007) | 80
BTK (Homo sapiens, UniProt Q06187) | 61.7
IRAK4 (Homo sapiens, UniProt Q9NWZ3) | 159
AKT3 (Homo sapiens, UniProt Q9Y243) | 95.8
MKNK2 (Homo sapiens, UniProt Q9HBH9) | 107
CSNK2A1 (Homo sapiens, UniProt P68400) | 95.9
